Experimental data pooled from the literature.
Lines come from different studies, so protocols differ. ± gives the spread as reported.
Target: Amine oxidase [flavin-containing] A (MAOA, Homo sapiens, UniProt P21397)
UniProt P21397, sequence (whole entry, looked up): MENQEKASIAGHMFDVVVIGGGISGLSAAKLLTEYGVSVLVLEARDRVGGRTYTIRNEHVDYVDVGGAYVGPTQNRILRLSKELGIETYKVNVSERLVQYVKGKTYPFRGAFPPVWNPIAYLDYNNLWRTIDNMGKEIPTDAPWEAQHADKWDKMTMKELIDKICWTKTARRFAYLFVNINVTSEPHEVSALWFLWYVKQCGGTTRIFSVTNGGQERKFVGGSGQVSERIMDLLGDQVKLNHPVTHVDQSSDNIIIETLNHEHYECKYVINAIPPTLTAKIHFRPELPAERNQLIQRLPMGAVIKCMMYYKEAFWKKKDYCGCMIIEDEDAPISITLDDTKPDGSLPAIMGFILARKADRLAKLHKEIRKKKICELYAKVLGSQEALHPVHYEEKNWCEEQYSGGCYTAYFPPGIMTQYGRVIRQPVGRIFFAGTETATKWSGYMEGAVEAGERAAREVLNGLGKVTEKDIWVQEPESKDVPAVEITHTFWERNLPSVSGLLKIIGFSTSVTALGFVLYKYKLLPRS

SMILES	assay	system	conditions	how to read	measurement	value
NCc1ccc(Cl)cc1	substrate		pH 9.0, α,α-protio substrate		kcat	0.65 ± 0.00817 s⁻¹
CC(C)c1ccc(/C=C/C(=O)c2ccc(S(C)(=O)=O)cc2)cc1	enzyme activity, inhibitor		10 µM		remaining activity	90.3%
C#CCCCCNC(=O)c1ccc(N(C(=O)C=C)c2ccc(Br)cc2)cc1	mass spectrometry profiling	H460 cell lysate	100 µM over 10 µM, UniProt P21397	reference: high over low concentration	reactivity ratio	1.85
COc1ccc(C#CC2=C[C@H]3C[C@@]4(OC(=O)C=C24)[C@H]2CC[C@H](C(OC)OC)N32)cc1	cell-free assay, inhibitor		10 µM		inhibition	3%
Cc1ccc(CN)cc1	substrate		pH 9.0, α,α-protio substrate		kcat	0.4167 ± 0.004 s⁻¹
CC(C)c1ccc(/C=C/C(=O)c2ccc(Br)s2)cc1	enzyme activity, inhibitor		about 2 × IC50, 30 min preincubation, without dialysis		remaining activity	29.1%
Cn1cnnc1Sc1c2c(c(C#N)c3nc4ccccc4n13)CCCC2			100 µM		remaining activity	99.9 ± 8.5%
CC(C)c1ccc(/C=C/C(=O)c2ccc(O)cc2)cc1	enzyme activity, inhibitor		10 µM		remaining activity	11.9%
COc1ncc2nc(C)n(Cc3ncc(S(N)(=O)=O)cc3F)c2c1-c1ccccc1	enzyme activity, inhibitor		10 µM, safety panel		inhibition	17%
